Measurements gathered from unrelated publications.
A part holds a random share of what one study measured. Substitutions count along the parent as printed.

Block 1 — technique: DHFR PCA, deep sequencing; sample: yeast; added: (+)-ABA 1.4 µM; relative to: wild-type fitted maximum; direction: higher = stronger binding
Target: ABI1, truncated, D143A, DHFR fusion (Arabidopsis thaliana)
Notes: methotrexate growth selection, single substitutions
Parent: PYL1, truncated, DHFR fusion (Arabidopsis thaliana); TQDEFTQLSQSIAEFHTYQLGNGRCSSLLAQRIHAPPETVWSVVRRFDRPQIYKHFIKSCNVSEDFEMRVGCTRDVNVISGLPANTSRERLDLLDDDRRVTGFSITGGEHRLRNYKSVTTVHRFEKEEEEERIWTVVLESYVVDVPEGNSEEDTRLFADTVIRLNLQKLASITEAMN; partner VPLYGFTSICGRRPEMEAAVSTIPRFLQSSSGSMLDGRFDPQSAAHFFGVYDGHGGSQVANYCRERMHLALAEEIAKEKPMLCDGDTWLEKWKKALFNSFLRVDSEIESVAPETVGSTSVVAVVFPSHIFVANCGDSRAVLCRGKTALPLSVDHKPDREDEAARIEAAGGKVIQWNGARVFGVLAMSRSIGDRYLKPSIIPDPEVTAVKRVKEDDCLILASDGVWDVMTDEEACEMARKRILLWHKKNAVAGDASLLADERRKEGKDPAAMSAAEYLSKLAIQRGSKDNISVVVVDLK
Change	relative binding score [%]
P146M	-1.64
R74Q	4.82
Q167W	5.97
E125L	50.8
N22V	64.4
I33Y	8.16
D95L	0.548
K54H	-6.21
E128T	60.8
D153E	69.6
I133M	58.4

Block 2 — technique: RNA Bind-n-Seq; form: RNA; sample: in vitro; tested at: 365 nM; relative to: no-protein control; direction: higher = stronger binding
Target: RNA binding protein fox-1 homolog 2, RRM domain, GST-SBP tag (RBFOX2, Homo sapiens, UniProt O43251-10, residues 100-194)
Notes: natural RNA segment, single round, ends assumed
Constant ends, left off below: GGGAGUUCUACAGUCCGACGAUC … UGGAAUUCUCGGGUGCCAA
Construct (chain): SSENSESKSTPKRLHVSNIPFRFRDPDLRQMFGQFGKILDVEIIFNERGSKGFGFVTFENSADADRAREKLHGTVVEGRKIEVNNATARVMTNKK
Strand	RBNS enrichment (R)
UGGUUUUAGAGAACUAAUUUUGUUUUAGCAUUAAACUGUUGAACUUUUUUUUGUACUUAGAAAACCUAGAUACUGCAGUCAGAUUUUGGAAACUGCCGUAUAGUCACUGU	0.398
AGUUCCUUUGAUAUCUGAGUUUAUUCAACAGUUCUUGGGUUUAGCAAACCCAAAAUAUUUUAUUAAGAAACUGUUUCAAAGAUAAAUUUGCACUGCUCCUUUUUCUUGCC	0.559
AGGGAAUACAAGGUGCUAGGUACCCUCCUUCCUCGUUGGCCACUAAGAGGUCUUAGAAACAUAGCCUGUAAAUGUGUCUUGUAACUGGCACACUAAAAAAGAUCCUAGUU	0.719
UCUCUAAUUCAUAUGAAUUUGCUGUUUGCUCUAAUUUCUUUGGGCUCUUCUAAUUUGAGUGGAGUACAAUUUUGUUGUGAAACAGUCCAGUGAAACUGUGCAGGGAAAUG	0.365
AGAUCAUUUCCCAUGCUUGCUUUGAUUUGGUCCUCAAUAAAUUAAAAUGAUCCACACUUUCACACUGCCACUUCUGACCUUCACUGCCAUCUUCAGACGGUUCCUUUUGA	3.91
CCGAUUCUGGCUGUCCUAUGUCCAGGAAGAAGCCCAUUUGUUGAGGCUGACCUUCCUGAUCAUACACACACACAGCCCAGCAAAAGCCUCUCCUGAACCAAACAAACCUG	0.324
GGUUGGGGGACAGCCUUCAGCAGCAGCUCACACCCUACCUUCCCCAGACUUGCACUGGGGUGGGAUUUGGAGUGAUGGGAAGGUUUUUAAGGGCCGGGGAUGGAUCUUUU	0.407
CUCCAGCCUCCUCCCUAUUGGAAUCCCAAUGGCUCCUGGAGUAGGAAAAAAGUUUAAACUACAUUCAUGUUCUUGUUCUGUGUCACUCGGCCCUGGGUAGUCUACCAUUU	0.504
CAGAAGGCACCAGACCAGCCCAGCAGCAAAUGCUCAUCUUUGGGAACAUAGGAAGCUUUACCUUGGGGAAGGUAUGCUUUACAAAUGUCCAGUGUAAUGAAUGUUUGGAA	0.559
ACCCAGGCCGCAGAGGGAGCAGGAAGAGAUGCUGAUAGUUUGAUCUAGAAACCAGCAGCUACUGGCUCAAAUUCAGGUUCUGGCGUCAAAUAGCGACAUUUCCAGUUUCU	0.251
UUAUAGCUUCUUCUUAAAAAAAAGUGUUGAAGAAAUUUUUUGGUUAUUCAUACAAAAAAAUGAGUUGAUGAUGGAAAAGCAAGUCAUAAUCAUCUAAUUGUUUUUGUCUA	0.781
GAGCCUGACAUCAAGCGCCUCCUUAAAGUUGCCAUAUAGAUGUGAACUGCUCAACACACAGAUCUCCUACUCCAUCCAGUCCUGAGGAGCCUUAGGAUGCAGCAUGCCUU	2.37

Block 3 — technique: universal PBM; form: double-stranded DNA, one strand shown; sample: in vitro; tested at: not given; direction: higher = stronger binding
Target: Sal-like protein 4, full length isoform B (SALL4, Homo sapiens, UniProt Q9UJQ4-2, residues 1-616)
Notes: 8-mer, flanks averaged, mean of replicates
Strand	E-score
CTGGGCGC	-0.334
ATATCCGA	0.203
CCCGTACG	-0.219
TTCACCAA	0.0853
GATTACGA	0.13
CTAGTACC	-0.052
AGGCAGCC	-0.301
AACACTGC	-0.053
AGGGAGAG	-0.0257
AACGAAAG	-0.0044
ACAGGTCA	-0.188
CCGGGAAA	-0.164

Block 4 — target: CCNF, cyclin fold, Cln2 fusion (human); technique: yeast growth competition, sequencing; sample: yeast; notes: strong parent motif; relative to: not given; direction: higher = stronger binding
Parent: CDKN1A docking peptide (human); SKACRRLFGPVDS; partner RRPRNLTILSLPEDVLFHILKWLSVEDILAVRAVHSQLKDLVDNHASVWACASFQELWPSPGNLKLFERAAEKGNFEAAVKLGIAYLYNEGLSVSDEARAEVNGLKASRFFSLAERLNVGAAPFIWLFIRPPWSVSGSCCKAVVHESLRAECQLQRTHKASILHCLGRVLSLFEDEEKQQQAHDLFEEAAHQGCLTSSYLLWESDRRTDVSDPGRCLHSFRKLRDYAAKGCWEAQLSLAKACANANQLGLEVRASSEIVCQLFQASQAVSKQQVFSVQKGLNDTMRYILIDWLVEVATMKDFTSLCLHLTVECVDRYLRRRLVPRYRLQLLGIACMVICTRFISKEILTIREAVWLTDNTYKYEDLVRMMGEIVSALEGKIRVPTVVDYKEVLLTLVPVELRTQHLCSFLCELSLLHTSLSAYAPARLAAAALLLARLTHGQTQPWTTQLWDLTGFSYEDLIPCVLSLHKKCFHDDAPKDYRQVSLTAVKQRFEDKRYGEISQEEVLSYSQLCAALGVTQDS
Change	normalised enrichment score
R5W	0.649
L7H	0.336
F8V	0.572
V11A	7.52
K2M	7.58
A3E	4.41
R6N	7.08
C4P	3.59
F8P	0.314
A3Q	3.82
D12Q	7.04
P10M	6.52
P10L	6.18
D12L	7
D12A	6.86
G9D	7.44

Block 5 — technique: RNA Bind-n-Seq; form: RNA; sample: in vitro; tested at: 20 nM; notes: 6-mer, flanks averaged, single round; added: 150 mM KCl; relative to: input library; direction: higher = stronger binding
Target: TAR DNA-binding protein 43, full length, His tag (TARDBP, Homo sapiens, UniProt Q13148, residues 1-414)
Strand	6-mer enrichment (R)
GGGUCC	1.87
CUCUUG	0.622
CUGCGA	0.794
AUGUUC	0.603
GCUUCU	0.601
ACGGUU	0.705
AGGGUC	1.85
GCUAAC	0.671
GAUCCU	0.613
GCGAAG	1.87

Block 6 — technique: RNA Bind-n-Seq; form: RNA; sample: in vitro; tested at: 200 nM; notes: whole 134-nt RNA, ends assumed; added: 150 mM LiCl; relative to: input library; direction: higher = stronger binding; each molecule: 7-deaza-guanosine replaces G
Target: Ras GTPase-activating protein-binding protein 1, full length (G3BP1, Homo sapiens, UniProt Q13283)
UniProt Q13283, sequence (whole entry, looked up): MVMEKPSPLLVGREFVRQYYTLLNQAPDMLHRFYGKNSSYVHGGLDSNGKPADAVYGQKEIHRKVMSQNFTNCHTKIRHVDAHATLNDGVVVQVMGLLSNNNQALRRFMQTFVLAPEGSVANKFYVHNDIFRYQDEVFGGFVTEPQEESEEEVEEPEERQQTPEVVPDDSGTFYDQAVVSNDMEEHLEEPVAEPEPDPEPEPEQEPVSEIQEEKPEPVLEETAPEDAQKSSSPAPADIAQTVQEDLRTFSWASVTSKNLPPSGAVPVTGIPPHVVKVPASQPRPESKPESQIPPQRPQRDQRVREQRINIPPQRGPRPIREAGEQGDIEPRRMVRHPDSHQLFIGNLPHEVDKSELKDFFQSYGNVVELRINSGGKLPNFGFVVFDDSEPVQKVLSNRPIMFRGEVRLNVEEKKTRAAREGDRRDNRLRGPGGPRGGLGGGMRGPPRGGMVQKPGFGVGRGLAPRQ
Constant ends, left off below: GGGAGUUCUACAGUCCGACGAUC … UGGAAUUCUCGGGUGUCAAGG
Strand	log2 enrichment
CCUGUGCUACACAUCGUAUGUACCGAAUCGGGGUUUUUUUGGGGUGGGGUUUUUUUGGGGAAAGUAUUAUGUUACGCCGUUCGGAUCUGC	0.0251
UCCUGUGCUACACAUCGUAUGUACCGAAUCGGGGAGGGGUUUUUUUGGGGAAAAAGGGGAAAGUAUUAUGUUACGCCGUUCGGAUCUGCA	0.508
UAACUUUAGAGGAGGAUCUGAUGGAUAUGGCAGUGGACGUGGUUUUGGGGAUGGCUAUAAUGGGUAUGGAGGAGGACCUGGAGGUGGCAA	0.127
CAAGUCCUGUGCUACACAUCGUAUGUACCGAAUCGGCCCGGGCCCGGGGCCCGGGAAAGUAUUAUGUUACGCCGUUCGGAUCUGCACUUC	-0.758
UCAAGUCCUGUGCUACACAUCGUAUGUACCGAAUCGGGGAAGGGAAGGGGAAGGGAAAGUAUUAUGUUACGCCGUUCGGAUCUGCACUUC	-0.091
UUCCUCAAGUCCUGUGCUACACAUCGUAUGUACCGAAUCGGAGGUGGUGGAAAGUAUUAUGUUACGCCGUUCGGAUCUGCACUUCCAGCA	-1.46
ACCAUGCAGGUGGGCAUCUUUGGGAAGUGGGGCAAGGGGGGGAUAGGGAGGGGGGUAACACUUUGCGAACAGGUGGUCCCAGGUCGUUUC	-0.0989
CCUCAAGUCCUGUGCUACACAUCGUAUGUACCGAAUCGGAAAAAGGUGGUGGAAAGUAUUAUGUUACGCCGUUCGGAUCUGCACUUCCAG	-0.0355
GCAGGAAGUAAAAACAAAUGGAAAUGCUUCGGAUAGGGGCAGGGGUGGGGGUUGCUAAGGAAAGGGUGGGAUGGGAGUGGGUAAAGAGUU	-0.0934
GUCCUGUGCUACACAUCGUAUGUACCGAAUCGGGGCCCCGGGGCCCCGGGGCCCCGGGAAAGUAUUAUGUUACGCCGUUCGGAUCUGCAC	-0.0682

Block 7 — technique: protein-binding microarray; form: double-stranded DNA, one strand shown; sample: in vitro; tested at: 2540 nM top; notes: 60-bp whole probe; added: salmon DNA 0.4 mg/ml; relative to: random background probes; direction: higher = stronger binding; constant ends, left off below: GCCTAGCAC … GTCTTGATTCGCTTGACGCTGCTG
Target: Interferon regulatory factor 3, full length, phosphomimetic (IRF3, Homo sapiens, UniProt Q14653, residues 1-427, S386D/S396D/S398D/S402D/T404D/S405D)
UniProt Q14653, sequence (whole entry, unmodified, looked up): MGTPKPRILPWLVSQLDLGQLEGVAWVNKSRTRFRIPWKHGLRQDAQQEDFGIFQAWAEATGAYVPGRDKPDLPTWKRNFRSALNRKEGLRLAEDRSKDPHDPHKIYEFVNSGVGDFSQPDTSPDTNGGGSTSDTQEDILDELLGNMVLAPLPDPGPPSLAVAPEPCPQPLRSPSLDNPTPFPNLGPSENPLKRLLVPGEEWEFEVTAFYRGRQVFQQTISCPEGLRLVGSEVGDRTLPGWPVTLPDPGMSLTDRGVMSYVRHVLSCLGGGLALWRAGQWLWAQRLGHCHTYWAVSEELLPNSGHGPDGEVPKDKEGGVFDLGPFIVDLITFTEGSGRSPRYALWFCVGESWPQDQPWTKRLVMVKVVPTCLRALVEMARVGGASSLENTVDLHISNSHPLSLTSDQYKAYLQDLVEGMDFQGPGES
Strand	fitted relative affinity
TTACGTATCCTTCTCCTTTAGTGCTAG	6.18 z-score
GAAGGTTTCGACACTGGGGACGTGCTA	2.38 z-score
TTAGATTACAGACTGGATTAGTGCTAG	0.259 z-score
CAATTCCTGAAATCTCTTTCCGTGCTA	1.79 z-score
TCAAGTTTCTCCTTTCCACTGTGCTAG	2.68 z-score
TCAGTGTTCTTTTCTGTTACTGTGCTA	2.06 z-score
TTACGTCTCCTTTTCCTTTAGTGCTAG	4.74 z-score
GACGAACTGTGTATCGAGACGTGCTAG	0.127 z-score
TTAGAACTGGGGACCGGATTAGTGCTA	-0.472 z-score
CATTGCTTGTGTTTATTGTGGTGCTAG	-0.00676 z-score
GACGGTTTCCCTCTCCTGACGTGCTAG	8.19 z-score
TCTACAATGGCTTTGCCTTTGTGCTAG	-0.71 z-score

For quick reference, copied from above (block 2):
Strand	RBNS enrichment (R)
AGGGAAUACAAGGUGCUAGGUACCCUCCUUCCUCGUUGGCCACUAAGAGGUCUUAGAAACAUAGCCUGUAAAUGUGUCUUGUAACUGGCACACUAAAAAAGAUCCUAGUU	0.719
UCUCUAAUUCAUAUGAAUUUGCUGUUUGCUCUAAUUUCUUUGGGCUCUUCUAAUUUGAGUGGAGUACAAUUUUGUUGUGAAACAGUCCAGUGAAACUGUGCAGGGAAAUG	0.365
UUAUAGCUUCUUCUUAAAAAAAAGUGUUGAAGAAAUUUUUUGGUUAUUCAUACAAAAAAAUGAGUUGAUGAUGGAAAAGCAAGUCAUAAUCAUCUAAUUGUUUUUGUCUA	0.781
CUCCAGCCUCCUCCCUAUUGGAAUCCCAAUGGCUCCUGGAGUAGGAAAAAAGUUUAAACUACAUUCAUGUUCUUGUUCUGUGUCACUCGGCCCUGGGUAGUCUACCAUUU	0.504
AGUUCCUUUGAUAUCUGAGUUUAUUCAACAGUUCUUGGGUUUAGCAAACCCAAAAUAUUUUAUUAAGAAACUGUUUCAAAGAUAAAUUUGCACUGCUCCUUUUUCUUGCC	0.559
GAGCCUGACAUCAAGCGCCUCCUUAAAGUUGCCAUAUAGAUGUGAACUGCUCAACACACAGAUCUCCUACUCCAUCCAGUCCUGAGGAGCCUUAGGAUGCAGCAUGCCUU	2.37
AGAUCAUUUCCCAUGCUUGCUUUGAUUUGGUCCUCAAUAAAUUAAAAUGAUCCACACUUUCACACUGCCACUUCUGACCUUCACUGCCAUCUUCAGACGGUUCCUUUUGA	3.91
UGGUUUUAGAGAACUAAUUUUGUUUUAGCAUUAAACUGUUGAACUUUUUUUUGUACUUAGAAAACCUAGAUACUGCAGUCAGAUUUUGGAAACUGCCGUAUAGUCACUGU	0.398
